Measured values pooled from the literature.
Each numbered part is a random draw from the data of one study; scales do not carry over between parts. Changes are numbered by the printed parent chain.

Block 1
Target: CCNE2, cyclin fold, Cln2 fusion (human)
Method: yeast growth competition, sequencing
Medium: yeast
Setting: weak parent motif
Relative to: not given
Direction: higher = stronger binding
Starting sequence: SLBP docking peptide (human); ARYKRKLLINDFG; partner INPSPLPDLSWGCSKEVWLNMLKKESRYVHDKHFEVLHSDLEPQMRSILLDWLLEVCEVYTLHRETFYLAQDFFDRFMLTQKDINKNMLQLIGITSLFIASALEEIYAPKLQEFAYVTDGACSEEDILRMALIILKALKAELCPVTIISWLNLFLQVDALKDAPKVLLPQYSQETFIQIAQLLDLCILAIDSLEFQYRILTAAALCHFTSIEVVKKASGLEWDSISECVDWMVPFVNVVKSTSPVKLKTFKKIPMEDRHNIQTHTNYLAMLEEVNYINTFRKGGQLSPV
| Substitution | normalised enrichment score |
| --- | --- |
| ARYKRKLLNNDFG [I9N] | 0.743 |
| ARYKRKLLINDFC [G13C] | 0.936 |
| ARYKRKLLIMDFG [N10M] | 0.682 |
| ARYKRKLLIPDFG [N10P] | 0.867 |
| ARGKRKLLINDFG [Y3G] | 0.245 |
| ARYKRKLLPNDFG [I9P] | 1.19 |
| QRYKRKLLINDFG [A1Q] | -0.348 |
| ARYKRKLLRNDFG [I9R] | 0.653 |
| ARYKRKLLINDSG [F12S] | 0.207 |
| AIYKRKLLINDFG [R2I] | 1.28 |
| ARMKRKLLINDFG [Y3M] | 1.44 |
| ARYKRKLLINMFG [D11M] | 1.83 |
| ARLKRKLLINDFG [Y3L] | 1.11 |
| ARYKRTLLINDFG [K6T] | 0.906 |
| ARYKRKLLIDDFG [N10D] | 0.793 |
| ARYKRKWLINDFG [L7W] | -0.412 |
| ARYKRKYLINDFG [L7Y] | 1.11 |
| ARYKRKLLIVDFG [N10V] | 0.289 |
| ARIKRKLLINDFG [Y3I] | 0.522 |
| ARYKRKMLINDFG [L7M] | 0.978 |
| ARYKRKLLINDKG [F12K] | 0.793 |
| ARYKIKLLINDFG [R5I] | 1.22 |
| ARQKRKLLINDFG [Y3Q] | -0.234 |
| ARYKRKHLINDFG [L7H] | 0.337 |

Block 2
Target: Histone acetyltransferase KAT6A, winged helix 2, GST fusion (KAT6A, Homo sapiens, UniProt Q92794, residues 85-181)
Method: protein binding microarray
Molecule type: double-stranded DNA, one strand shown
Medium: in vitro
Concentration: not given
Setting: 8-mer, flanks averaged, mean of 2 arrays, mostly near background
Relative to: not given
Direction: higher = stronger binding
Target sequence (chain): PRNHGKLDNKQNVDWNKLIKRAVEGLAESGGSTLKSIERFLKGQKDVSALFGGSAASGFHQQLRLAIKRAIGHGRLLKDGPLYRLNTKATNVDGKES
| Oligonucleotide | E-score |
| --- | --- |
| ATGCGCCG | 0.048 |
| ATAGTCCA | -0.0534 |
| CGAGGGCA | 0.144 |
| AGGGTTGG | 0.055 |
| GATTTACA | 0.0948 |
| CTCTGGGC | 0.219 |
| CATGCCTC | 0.0378 |
| CGCTCTAG | -0.0433 |
| ACCTAGTA | -0.129 |
| ATAGTGCA | 0.0844 |
| CTCAGAAC | 0.0236 |
| GCTTCCCA | 0.0617 |
| CGTCTCCC | 0.075 |
| AGCTGGTG | 0.0828 |
| GTTGCACA | 0.0992 |
| AGAGGCTG | -0.261 |
| TCCTCTCA | -0.139 |
| GGCTCACA | -0.0824 |
| CCTTATCC | -0.042 |
| TCTCGCAA | 0.166 |
| CTGTGCCA | -0.104 |
| ACAGCCCG | -0.00623 |
| ACGGTTGA | -0.0244 |

Block 3
Target: Sal-like protein 4, full length isoform B (SALL4, Homo sapiens, UniProt Q9UJQ4-2, residues 1-616)
Method: universal PBM
Molecule type: double-stranded DNA, one strand shown
Medium: in vitro
Concentration: not given
Setting: 8-mer, flanks averaged, mean of replicates
Direction: higher = stronger binding
| Oligonucleotide | E-score |
| --- | --- |
| GTACGTAA | 0.276 |
| AACTTCTC | 0.0785 |
| ACCAGGCT | -0.148 |
| ATCGTACG | 0.11 |
| GGCTTTGA | -0.00564 |
| ACAAAGCT | 0.117 |
| ACGTCTCT | -0.0394 |
| ACTTCACA | 0.0713 |
| ATCCAGCC | -0.17 |
| AACCAGGG | -0.108 |
| CAAACCCA | 0.095 |
| CAGAAGAG | -0.0729 |
| AATCCGGA | -0.0367 |
| TACATCTA | 0.23 |
| CCCAATTA | 0.115 |
| CGGACATA | 0.0554 |
| ATGCAATA | 0.271 |
| ATTTCCCG | 0.0127 |
| CGACGCAC | -0.0467 |
| AATTACAC | 0.2 |
| ACGTTGGG | -0.257 |
| ATACGACC | -0.0799 |
| AGTGCAGG | -0.233 |
| CAACGAAG | -0.0284 |
| GTAGTCCA | -0.0513 |

Block 4
Target: RING finger protein unkempt homolog, zinc fingers 1-6, GST-SBP tag (UNK, Homo sapiens, UniProt Q9C0B0, residues 30-357)
Method: RNA Bind-n-Seq
Molecule type: RNA
Medium: in vitro
Concentration: not given
Setting: RNA with constant flanks, human and mouse sites, ends assumed
Relative to: input RNA pool
Direction: higher = stronger binding
Constant ends, left off below: GGGAGUUCUACAGUCCGACGAUC … CAACAGAGGAUUGAGCAUCA
Residues (chain): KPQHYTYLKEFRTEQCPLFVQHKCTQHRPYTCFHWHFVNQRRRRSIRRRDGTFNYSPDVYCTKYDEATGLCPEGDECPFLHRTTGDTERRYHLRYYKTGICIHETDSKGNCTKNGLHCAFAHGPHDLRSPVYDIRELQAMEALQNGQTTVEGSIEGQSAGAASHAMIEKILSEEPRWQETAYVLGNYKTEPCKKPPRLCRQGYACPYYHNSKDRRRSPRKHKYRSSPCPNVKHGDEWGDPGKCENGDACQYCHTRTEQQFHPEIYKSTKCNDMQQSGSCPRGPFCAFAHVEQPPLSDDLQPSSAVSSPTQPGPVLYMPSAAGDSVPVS
| Oligonucleotide | bound/input enrichment [ratio] |
| --- | --- |
| AAGUUGAAUCAUGUAGCUGCUGGUCUCGUUUCACCAAGUCUGAAAUCGGAUACCUCUAGUAAAGAAAUAGAGGAAGCUAUGAAAAGAGUACGAGAAGCACAGUCCCUAAUUUCUGCUGCU | 0.0705 |
| GUGCUGGGAGUCGGGGACUGAACCUGACUCUUCUUGUGAUUAAAACAGUUCUCAUCAUAGUGCACUGCACAGUUGAGCAGGGGUAUUUUUCUUCUCCCCAAAGUCCCCCCGGCCCCGUCU | 0.733 |
| AAAAGACAGGCAUGGCUUUGGGAAGAAGACAAGAAUUUGAGAUCUGGCGUGAGGAAAUAUGGAGAGGGAAACUGGUCUAAAAUACUGUUGCAUUAUAAAUUCAACAACCGGACAAGUGUC | 0.436 |
| AGCAAAGAAGAAGUUAUCCGCUUUUUGGAAAGUACCCCGGCCAGCCUGAAUCUGGAAGACAUAGAAGACCUGUUCUCUUUGGCUCAGUAUUACUGUAGUAAGACGCCAGCUUCUUUUAGG | 0.425 |
| UUUUUGGGAAUUGCUUACAUCACUAUUGGAUCCAUCUCUUUCCUUCUGGGAGUUGUACUGCUAGUAAUUAAUCAUAAAUAUAGAAACAGUAGUAACACUGCUGACAUCACCAUUUAAUUU | 8.92 |
| CUUUUUCACUCCACUGCCCUAGGGGAGUUCAGCAACCUAAUGAUCUCUAUCUCUGAACAUCUCUUCAUCCCAUGCUCCAAGUCCAGCAACCUGCACCCUGGAACCAGGAGUGGACCCUAC | 0.185 |
| AUAGAAGACAGGGAUAAUACCUUUAUCUCUGGCCACUCAAAAAUGCAGUGCCAGGAGUGCUAAACCUAGAGGCCAAUACUGAUGACCUGGAAGGUGAUCCAUAUGAUUGUCACCACAAAG | 0.329 |
| UAUCCUAUUGCGGUGCUCAUAGAUGAACUCCGCAAUGAGGACGUUCAGCUUCGUCUCAAUAGUAUCAAGAAGCUCUCCACAAUUGCCUUGGCCCUUGGGGUUGAACGGACCAGAAGUGAG | 1.35 |
| UUUCGACAGUUUAUAUUGGUCAUGAAUGCAUUAGAUAACAGAGCUGCACGAAACCACGUGAAUAGGAUGUGUCUGGCCGCUGAUGUGCCUCUCAUUGAGAGCGGGACUGCUGGGUAUCUC | 0.308 |
| CGCUUGGAUGAGGCGGGUGUCACAGAUGAAGUGCUAGAUUCUGCCAUGCAAGCCUUCCUUCUGGAGGUCAUUGUUAAACAUGGGGAGCCGGCACCUUAUUUAUGUAACAAAGAUCCGUUU | 0.0835 |
| GCUGAGCCUCAGCUGUAUGGUAAUGCCACCAGUGACCAUCCCAACAAUCAAGAUCAAAGUAGCAGUCUUCCUGAAGAAUGUGUACCUUCAGAUGAAAGUACUCCUCCGAGUAUUAAAAAA | 0.227 |

Block 5
Target: Interferon regulatory factor 7, full length, phosphomimetic (IRF7, Homo sapiens, UniProt Q92985, residues 1-503, S101K/S471D/S472D/S475D/S476D/S477D/S483D/S484D/S487D)
UniProt Q92985, sequence (whole entry, unmodified, looked up): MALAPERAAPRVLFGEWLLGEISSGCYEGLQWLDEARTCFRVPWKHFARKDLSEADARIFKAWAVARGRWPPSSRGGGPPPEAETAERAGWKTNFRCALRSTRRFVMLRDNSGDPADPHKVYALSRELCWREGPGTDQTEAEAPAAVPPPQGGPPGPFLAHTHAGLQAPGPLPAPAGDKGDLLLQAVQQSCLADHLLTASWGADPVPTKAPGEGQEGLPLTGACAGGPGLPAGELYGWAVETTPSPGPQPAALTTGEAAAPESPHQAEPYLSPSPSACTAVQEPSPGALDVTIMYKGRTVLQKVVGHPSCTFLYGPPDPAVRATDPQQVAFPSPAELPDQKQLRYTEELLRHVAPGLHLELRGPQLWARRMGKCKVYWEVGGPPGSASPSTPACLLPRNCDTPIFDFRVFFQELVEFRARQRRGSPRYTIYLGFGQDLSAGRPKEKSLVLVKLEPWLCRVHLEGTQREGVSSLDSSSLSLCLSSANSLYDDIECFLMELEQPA
Method: protein-binding microarray
Molecule type: double-stranded DNA, one strand shown
Medium: in vitro
Concentration: 250 nM
Setting: 60-bp whole probe
Together with: salmon DNA 0.4 mg/ml
Relative to: random background probes
Direction: higher = stronger binding
Constant ends, left off below: GCCTAGCAC … GTCTTGATTCGCTTGACGCTGCTG
| Oligonucleotide | log fluorescence |
| --- | --- |
| CTTCACATATAATTTTGTCATGTGCTA | 0.117 z-score |
| TTAGGTTTCCTTCTCCTTTAGTGCTAG | 2.72 z-score |
| TTAGATATCAGACTTGATTAGTGCTAG | -0.379 z-score |
| CTAGGTTTCGGACTGGGTTAGTGCTAG | 4.66 z-score |
| GACGGGATCGGTTTCGGGACGTGCTAG | 5.17 z-score |
| GACGATATCGGTACTGGAGACGTGCTA | -0.129 z-score |
| GACGGTCTCGGTTTCAGGACGTGCTAG | 6.12 z-score |
| TTTGGTTTCGGACTGGGTTAGTGCTAG | 5.61 z-score |
| TTAGATATCCGTTTCGATTAGTGCTAG | 3.55 z-score |
| GACTGTTTCGACACTGGGGACGTGCTA | 1.69 z-score |
| TTAGATTTCGGGAATGGATTAGTGCTA | 0.619 z-score |
| TTGGTTTCTGGTTTATTGAGGTGCTAG | 6.88 z-score |
| TTAGATCTCGGTATCGATTAGTGCTAG | 1.27 z-score |
| GACGAACTGAGTAACGAGACGTGCTAG | -0.0768 z-score |
| GACGATATCAGTCTCGAGCCGTGCTAG | -0.361 z-score |
| GACGAACTGGGGTTTCAAGACGTGCTA | -0.518 z-score |
| GACGAACTGAGACTGGATACGTGCTAG | -0.0015 z-score |
| TTAGGACTGGACTTTCGCTTAGTGCTA | -0.185 z-score |

Block 6
Target: ABI1, truncated, D143A, DHFR fusion (Arabidopsis thaliana)
Method: DHFR PCA, deep sequencing
Medium: yeast
Setting: methotrexate growth selection, single substitutions
Together with: (+)-ABA 58 µM
Relative to: wild-type fitted maximum
Direction: higher = stronger binding
Starting sequence: PYL1, truncated, DHFR fusion (Arabidopsis thaliana); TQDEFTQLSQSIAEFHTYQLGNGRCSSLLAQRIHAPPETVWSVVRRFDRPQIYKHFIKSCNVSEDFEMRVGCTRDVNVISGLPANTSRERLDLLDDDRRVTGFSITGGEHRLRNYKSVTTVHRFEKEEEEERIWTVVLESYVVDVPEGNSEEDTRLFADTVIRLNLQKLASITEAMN; partner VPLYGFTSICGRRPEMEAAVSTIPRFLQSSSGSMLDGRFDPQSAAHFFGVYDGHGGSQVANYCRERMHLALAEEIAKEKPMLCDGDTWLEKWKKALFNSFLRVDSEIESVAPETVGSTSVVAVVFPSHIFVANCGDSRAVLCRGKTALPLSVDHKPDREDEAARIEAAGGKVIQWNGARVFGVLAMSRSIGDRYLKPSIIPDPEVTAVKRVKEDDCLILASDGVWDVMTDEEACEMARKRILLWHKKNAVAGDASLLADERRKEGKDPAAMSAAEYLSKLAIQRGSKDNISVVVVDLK
| Substitution | relative binding score |
| --- | --- |
| D92Q | 23.8% |
| E147Y | 78.1% |
| A170I | 6.44% |
| C25F | 46.4% |
| T73K | 71.3% |
| K168M | 72.6% |
| G108D | 19% |
| G21T | 88.8% |
| G102T | 5.7% |
| R123Y | 85.1% |
| I133P | 99.5% |
| R46A | 75.6% |
| K116C | 59.4% |
| V136K | 4.12% |
| Y141D | 0.57% |

Excerpt of the above (block 1):
| Substitution | normalised enrichment score |
| --- | --- |
| ARYKRTLLINDFG [K6T] | 0.906 |
| ARYKRKLLINDSG [F12S] | 0.207 |
| ARYKRKLLINDFC [G13C] | 0.936 |
| ARYKRKLLINMFG [D11M] | 1.83 |
| ARGKRKLLINDFG [Y3G] | 0.245 |
| ARYKRKLLIDDFG [N10D] | 0.793 |
| ARYKRKLLRNDFG [I9R] | 0.653 |
| ARYKRKHLINDFG [L7H] | 0.337 |
| ARMKRKLLINDFG [Y3M] | 1.44 |
| ARYKRKLLIMDFG [N10M] | 0.682 |
| ARYKRKLLIVDFG [N10V] | 0.289 |
| ARYKRKLLINDKG [F12K] | 0.793 |
| ARLKRKLLINDFG [Y3L] | 1.11 |
